Assay results pooled from the literature.
Numbered parts are unrelated; each lists some results of a single study. Substitutions count along the parent as printed.

Study 1
Target: Histone acetyltransferase KAT6A, winged helix 2, GST fusion (KAT6A, Homo sapiens, UniProt Q92794, residues 85-181)
Method: protein binding microarray
Form: double-stranded DNA, one strand shown
Sample: in vitro
Tested at: not given
Setting: 8-mer, flanks averaged, mean of 2 arrays, mostly near background
Relative to: not given
Direction: higher = stronger binding
Residues (chain): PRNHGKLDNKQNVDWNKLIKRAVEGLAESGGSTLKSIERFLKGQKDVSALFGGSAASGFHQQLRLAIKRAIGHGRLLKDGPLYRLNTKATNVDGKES
Strand | E-score
CATGTTGC | 0.0208
AACAGGGA | 0.0002
GACATCCA | 0.0389
ACAGCAGG | 0.0797
CCAGTCAG | -0.139
GTATAAGA | -0.195
AATGTTCA | -0.107
ACAATCTA | 0.023
ATGATAAA | 0.0701
CACCTGGC | 0.0731
CCCCTCTC | 0.0304
CATGACGA | 0.106
CATGAAGA | 0.0609
AAATCTTA | -0.00189
CTGGTAGC | 0.122
ATGTGATA | -0.0775
CGTGTAAC | -0.182
CTGCGGCA | 0.137
CCTCCTAA | -0.0547
AGGCAACT | 0.179
ACAAGTTA | -0.158
ACGGTAGT | -0.124
GCGTGACA | 0.0317

Study 2
Target: CCNE1, cyclin fold, Cln2 fusion (human)
Method: yeast growth competition, sequencing
Sample: yeast
Setting: strong parent motif
Relative to: not given
Direction: higher = stronger binding
Starting sequence: E2F1 docking peptide (human); PPVKRRLDFETDH
Variant | normalised enrichment score
PPRKRRLDFETDH [V3R] | 0.572
PPVKRRHDFETDH [L7H] | 0.17
PPVKRRDDFETDH [L7D] | 0.101
PPVKRWLDFETDH [R6W] | 4.49
PPVKRRLDFSTDH [E10S] | 6.05
PPMKRRLDFETDH [V3M] | 2.54
PAVKRRLDFETDH [P2A] | 6.15
PPVKRRLDFCTDH [E10C] | 6.27
PPVKRRLFFETDH [D8F] | 7.39
PPCKRRLDFETDH [V3C] | 4.85
PPVKRRLGFETDH [D8G] | 4.57
PPVKRRRDFETDH [L7R] | -0.0129
PPVKRRLDQETDH [F9Q] | 0.819
PNVKRRLDFETDH [P2N] | 6.44
PPVKRRIDFETDH [L7I] | 4.45
PPVKRRLDFETIH [D12I] | 6.46
PDVKRRLDFETDH [P2D] | 5.65
PPVKRRLMFETDH [D8M] | 6.4
PPEKRRLDFETDH [V3E] | 1.42
PPVRRRLDFETDH [K4R] | 6.15
PPVKRRCDFETDH [L7C] | 0.293

Study 3
Target: Prothrombin, mature alpha-thrombin (F2, Homo sapiens, UniProt P00734)
Method: aptamer microarray, sandwich
Form: DNA with 2'F-ANA
Sample: in vitro
Tested at: 200 nM
Setting: whole 15-mer aptamer, many near background
Together with: Cy3 exosite-II aptamer, 400 nM
Direction: higher = stronger binding
Strand: GGTTGGTGTGGTTGG
Modification | mean fluorescence intensity
2'F-ANA at 1 2 3 7 10 12 13 | 88.7 a.u.
2'F-ANA at 2 8 11 14 15 | 142 a.u.
2'F-ANA at 2 4 10 11 12 13 14 15 | 68.7 a.u.
2'F-ANA at 2 3 4 10 14 | 205 a.u.
2'F-ANA at 1 3 5 6 8 10 11 12 14 | 98.8 a.u.
2'F-ANA at 1 4 6 8 9 10 11 12 13 | 56.8 a.u.
2'F-ANA at 1 2 3 5 7 8 9 11 12 13 15 | 77.1 a.u.
2'F-ANA at 4 5 6 9 11 12 13 14 15 | 51.9 a.u.
2'F-ANA at 3 6 7 10 13 | 479 a.u.
2'F-ANA at 8 9 10 12 13 | 185 a.u.
2'F-ANA at 2 4 6 8 9 10 12 15 | 104 a.u.
2'F-ANA at 2 3 5 6 7 8 10 12 14 15 | 55.7 a.u.
2'F-ANA at 3 5 7 8 11 12 | 240 a.u.
2'F-ANA at 4 7 8 10 12 15 | 223 a.u.
2'F-ANA at 1 2 3 4 7 8 9 10 13 14 15 | 48 a.u.
2'F-ANA at 13 14 15 | 185 a.u.
2'F-ANA at 2 3 4 7 8 11 12 13 15 | 692 a.u.

Study 4
Target: Interferon regulatory factor 7, full length, phosphomimetic (IRF7, Homo sapiens, UniProt Q92985, residues 1-503, S471D/S472D/S475D/S476D/S477D/S483D/S484D/S487D)
Method: protein-binding microarray
Form: double-stranded DNA, one strand shown
Sample: in vitro
Tested at: 2200 nM top
Setting: 60-bp whole probe
Together with: salmon DNA 0.4 mg/ml
Relative to: random background probes
Direction: higher = stronger binding
Constant ends, left off below: GCCTAGCAC … GTCTTGATTCGCTTGACGCTGCTG
Residues (chain): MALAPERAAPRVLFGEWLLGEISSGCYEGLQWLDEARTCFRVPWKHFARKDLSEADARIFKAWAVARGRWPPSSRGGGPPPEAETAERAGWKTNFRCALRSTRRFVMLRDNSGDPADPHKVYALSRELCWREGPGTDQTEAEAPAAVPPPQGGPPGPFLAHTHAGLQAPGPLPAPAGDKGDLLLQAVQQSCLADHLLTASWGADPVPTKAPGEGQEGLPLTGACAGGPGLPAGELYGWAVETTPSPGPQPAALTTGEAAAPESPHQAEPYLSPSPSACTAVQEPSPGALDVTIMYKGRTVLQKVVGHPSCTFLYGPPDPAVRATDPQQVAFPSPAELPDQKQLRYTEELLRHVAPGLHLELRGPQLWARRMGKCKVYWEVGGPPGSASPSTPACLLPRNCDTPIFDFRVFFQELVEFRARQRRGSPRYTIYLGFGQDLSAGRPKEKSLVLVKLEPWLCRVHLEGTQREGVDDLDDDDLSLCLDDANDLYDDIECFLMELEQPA
Strand | fitted relative affinity [z-score]
TTAGAACTGAGTATCGCTTAGTGCTAG | -0.26
AGATTTTTATCAAATGTGGGAGTGCTA | -0.703
GACGATATCAGTTTCAAGACGTGCTAG | 0.742
GACGGTGCCCTTTTCCTGACGTGCTAG | 0.791
AGCCAGGCAACCTATGGCCTGTGCTAG | -1.49
TTTTTTTTTACTTCGGGTGAGTGCTAG | 2.26
GACAATCTCAGTCTCGAGACGTGCTAG | 0.427
TTAGGACAGGACACTGGGTTAGTGCTA | -0.839
GACGATCTCAGTTGCGAGACGTGCTAG | 0.374
ACCTGTTCCCTCATCAGGCTGTGCTAG | 2.09
TCAGAAATCTCAATGGGACTGTGCTAG | -0.501
TTGGGTATCGGGTTTCGGTTAGTGCTA | 3.59
ATGCTACTGCATTTTTTTTTGTGCTAG | 0.489
TTAGGTTTCGGTCCCGGTTAGTGCTAG | 5.25
GCAAGAGGAAAGGAACATCAGTGCTAG | -0.326
GACGAAATCAGTCTCGAGACGTGCTAG | 0.343
TTATGTTTCGACTTTCGGTTAGTGCTA | 10.5
TTCGATATCAGTATCGATTAGTGCTAG | 0.811
TTAGAACTGAGTATTGATTAGTGCTAG | -0.492

Some of these lines once more (study 4):
Strand | fitted relative affinity [z-score]
TCAGAAATCTCAATGGGACTGTGCTAG | -0.501
ACCTGTTCCCTCATCAGGCTGTGCTAG | 2.09
TTAGGTTTCGGTCCCGGTTAGTGCTAG | 5.25
GACGAAATCAGTCTCGAGACGTGCTAG | 0.343
TTAGGACAGGACACTGGGTTAGTGCTA | -0.839
TTCGATATCAGTATCGATTAGTGCTAG | 0.811
